{"data": "Published values collected from several papers", "Tripartite terminase subunit 3 C-terminal nuclease domain": "Tripartite terminase subunit 3, C-terminal nuclease domain (Human betaherpesvirus 5, UniProt P16732)", "ache": "Acetylcholinesterase (ache, Electrophorus electricus, UniProt O42275)", "AKR1C2": "Aldo-keto reductase family 1 member C2 (AKR1C2, Homo sapiens, UniProt P52895)", "AKR1C1": "Aldo-keto reductase family 1 member C1 (AKR1C1, Homo sapiens, UniProt Q04828)", "note": "Lines come from different studies, so protocols differ. Values joined by “and” are separate records of one study, mostly repeats; a detail may differ. ± marks the error that the study gave.", "chain of UniProt O42275 (whole entry, looked up)": "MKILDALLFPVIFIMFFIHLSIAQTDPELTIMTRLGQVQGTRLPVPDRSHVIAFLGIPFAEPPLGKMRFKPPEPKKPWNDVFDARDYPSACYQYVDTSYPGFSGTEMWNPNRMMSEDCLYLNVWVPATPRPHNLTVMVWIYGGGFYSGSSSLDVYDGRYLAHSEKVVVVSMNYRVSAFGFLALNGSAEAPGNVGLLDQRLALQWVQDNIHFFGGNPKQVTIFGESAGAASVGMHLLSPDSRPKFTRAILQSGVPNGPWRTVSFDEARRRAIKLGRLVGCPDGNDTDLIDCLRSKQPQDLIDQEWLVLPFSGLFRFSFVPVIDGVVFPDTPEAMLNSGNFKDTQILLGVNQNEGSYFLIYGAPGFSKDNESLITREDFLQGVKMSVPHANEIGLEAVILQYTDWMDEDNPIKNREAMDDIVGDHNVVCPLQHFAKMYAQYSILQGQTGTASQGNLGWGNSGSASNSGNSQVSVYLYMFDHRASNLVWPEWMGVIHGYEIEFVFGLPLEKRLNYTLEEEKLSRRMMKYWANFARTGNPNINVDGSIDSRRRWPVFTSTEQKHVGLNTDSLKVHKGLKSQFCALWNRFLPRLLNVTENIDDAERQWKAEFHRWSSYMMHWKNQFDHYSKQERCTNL", "chain of UniProt P16732 (whole entry, looked up)": "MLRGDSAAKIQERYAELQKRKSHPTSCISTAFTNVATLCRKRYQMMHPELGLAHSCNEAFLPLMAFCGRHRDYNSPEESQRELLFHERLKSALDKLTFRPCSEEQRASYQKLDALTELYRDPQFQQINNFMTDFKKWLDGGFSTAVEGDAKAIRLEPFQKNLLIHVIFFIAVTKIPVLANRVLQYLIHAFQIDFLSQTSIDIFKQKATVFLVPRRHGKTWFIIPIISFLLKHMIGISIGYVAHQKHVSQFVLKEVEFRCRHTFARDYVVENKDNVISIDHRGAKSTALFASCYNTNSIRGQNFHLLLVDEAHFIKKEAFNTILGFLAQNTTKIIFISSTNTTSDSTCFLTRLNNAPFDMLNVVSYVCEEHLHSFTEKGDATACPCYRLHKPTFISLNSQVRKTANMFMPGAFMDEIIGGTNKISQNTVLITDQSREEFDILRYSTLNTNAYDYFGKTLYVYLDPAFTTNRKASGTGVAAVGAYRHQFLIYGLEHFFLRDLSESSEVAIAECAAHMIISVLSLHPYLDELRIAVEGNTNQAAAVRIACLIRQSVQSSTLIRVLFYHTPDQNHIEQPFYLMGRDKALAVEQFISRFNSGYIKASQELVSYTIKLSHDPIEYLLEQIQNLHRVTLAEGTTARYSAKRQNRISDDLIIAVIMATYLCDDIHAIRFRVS", "chain of UniProt Q04828 (whole entry, looked up)": "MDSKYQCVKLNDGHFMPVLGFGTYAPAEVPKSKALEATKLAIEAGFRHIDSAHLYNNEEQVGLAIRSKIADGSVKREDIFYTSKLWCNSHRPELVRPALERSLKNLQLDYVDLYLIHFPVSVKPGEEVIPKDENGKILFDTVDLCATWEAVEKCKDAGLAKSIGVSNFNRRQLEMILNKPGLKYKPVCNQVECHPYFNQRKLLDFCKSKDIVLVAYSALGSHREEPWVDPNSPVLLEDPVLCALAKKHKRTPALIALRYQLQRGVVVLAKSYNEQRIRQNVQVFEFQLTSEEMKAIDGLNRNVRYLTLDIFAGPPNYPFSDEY", "chain of UniProt P52895 (whole entry, looked up)": "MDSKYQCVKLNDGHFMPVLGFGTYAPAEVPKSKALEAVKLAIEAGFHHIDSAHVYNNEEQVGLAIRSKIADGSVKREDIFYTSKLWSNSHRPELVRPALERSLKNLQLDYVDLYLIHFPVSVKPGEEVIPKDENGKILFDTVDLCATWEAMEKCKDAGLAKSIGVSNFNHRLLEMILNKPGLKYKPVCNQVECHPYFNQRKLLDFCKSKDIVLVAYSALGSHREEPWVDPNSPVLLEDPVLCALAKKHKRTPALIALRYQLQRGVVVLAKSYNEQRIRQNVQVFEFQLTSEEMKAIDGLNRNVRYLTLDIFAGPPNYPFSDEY", "chain of UniProt P35499 (whole entry, looked up)": "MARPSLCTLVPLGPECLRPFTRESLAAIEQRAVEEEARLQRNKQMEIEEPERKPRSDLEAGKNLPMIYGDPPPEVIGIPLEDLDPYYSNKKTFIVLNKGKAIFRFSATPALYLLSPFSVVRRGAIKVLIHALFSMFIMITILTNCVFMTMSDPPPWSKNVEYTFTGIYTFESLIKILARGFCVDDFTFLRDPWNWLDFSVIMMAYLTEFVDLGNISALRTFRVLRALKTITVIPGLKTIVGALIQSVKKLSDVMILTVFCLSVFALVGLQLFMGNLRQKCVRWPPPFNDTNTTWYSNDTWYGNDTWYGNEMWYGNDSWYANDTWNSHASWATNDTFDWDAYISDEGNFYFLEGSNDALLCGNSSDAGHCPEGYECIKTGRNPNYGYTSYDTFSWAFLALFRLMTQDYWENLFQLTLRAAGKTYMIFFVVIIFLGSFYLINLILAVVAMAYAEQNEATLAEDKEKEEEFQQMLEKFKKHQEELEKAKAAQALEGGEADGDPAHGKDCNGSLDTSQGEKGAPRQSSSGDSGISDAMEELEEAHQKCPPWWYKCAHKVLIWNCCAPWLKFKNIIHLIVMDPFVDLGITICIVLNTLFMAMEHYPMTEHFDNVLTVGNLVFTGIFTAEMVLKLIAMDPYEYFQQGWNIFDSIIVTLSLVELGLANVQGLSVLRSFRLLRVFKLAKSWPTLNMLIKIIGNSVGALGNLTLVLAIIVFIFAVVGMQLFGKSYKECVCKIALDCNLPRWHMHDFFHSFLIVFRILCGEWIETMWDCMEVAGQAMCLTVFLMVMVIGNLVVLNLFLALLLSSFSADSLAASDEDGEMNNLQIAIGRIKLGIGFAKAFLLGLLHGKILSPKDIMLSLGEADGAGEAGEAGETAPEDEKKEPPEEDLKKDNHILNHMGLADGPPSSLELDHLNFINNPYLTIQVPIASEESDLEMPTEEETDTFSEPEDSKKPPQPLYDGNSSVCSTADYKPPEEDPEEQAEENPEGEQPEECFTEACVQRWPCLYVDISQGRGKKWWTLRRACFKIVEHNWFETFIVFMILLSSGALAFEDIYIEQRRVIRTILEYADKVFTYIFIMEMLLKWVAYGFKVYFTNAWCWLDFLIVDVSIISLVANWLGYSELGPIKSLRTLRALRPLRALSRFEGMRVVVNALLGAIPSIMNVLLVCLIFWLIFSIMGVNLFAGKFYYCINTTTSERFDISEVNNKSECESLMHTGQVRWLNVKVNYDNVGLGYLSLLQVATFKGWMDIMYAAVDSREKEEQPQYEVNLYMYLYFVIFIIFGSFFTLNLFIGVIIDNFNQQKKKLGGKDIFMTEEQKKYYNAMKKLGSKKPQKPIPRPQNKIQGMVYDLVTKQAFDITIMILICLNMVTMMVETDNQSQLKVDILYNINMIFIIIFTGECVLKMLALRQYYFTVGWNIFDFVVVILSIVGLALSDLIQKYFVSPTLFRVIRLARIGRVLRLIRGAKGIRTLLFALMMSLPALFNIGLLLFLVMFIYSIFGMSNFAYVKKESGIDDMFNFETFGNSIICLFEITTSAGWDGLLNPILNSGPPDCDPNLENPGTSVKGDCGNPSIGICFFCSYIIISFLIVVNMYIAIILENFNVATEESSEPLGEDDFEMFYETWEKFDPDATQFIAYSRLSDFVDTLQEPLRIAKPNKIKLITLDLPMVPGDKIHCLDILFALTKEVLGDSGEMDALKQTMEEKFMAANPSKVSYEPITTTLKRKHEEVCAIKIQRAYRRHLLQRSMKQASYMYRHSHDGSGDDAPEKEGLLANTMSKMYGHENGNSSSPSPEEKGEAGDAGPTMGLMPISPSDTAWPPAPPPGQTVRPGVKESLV", "chain of UniProt P09936 (whole entry, looked up)": "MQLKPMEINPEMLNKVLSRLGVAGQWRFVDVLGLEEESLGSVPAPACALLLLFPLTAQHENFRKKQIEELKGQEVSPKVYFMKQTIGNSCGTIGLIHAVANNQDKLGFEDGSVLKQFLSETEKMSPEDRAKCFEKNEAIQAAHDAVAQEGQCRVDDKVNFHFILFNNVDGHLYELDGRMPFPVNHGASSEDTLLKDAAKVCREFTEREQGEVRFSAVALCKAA", "chain of UniProt P35236 (whole entry, looked up)": "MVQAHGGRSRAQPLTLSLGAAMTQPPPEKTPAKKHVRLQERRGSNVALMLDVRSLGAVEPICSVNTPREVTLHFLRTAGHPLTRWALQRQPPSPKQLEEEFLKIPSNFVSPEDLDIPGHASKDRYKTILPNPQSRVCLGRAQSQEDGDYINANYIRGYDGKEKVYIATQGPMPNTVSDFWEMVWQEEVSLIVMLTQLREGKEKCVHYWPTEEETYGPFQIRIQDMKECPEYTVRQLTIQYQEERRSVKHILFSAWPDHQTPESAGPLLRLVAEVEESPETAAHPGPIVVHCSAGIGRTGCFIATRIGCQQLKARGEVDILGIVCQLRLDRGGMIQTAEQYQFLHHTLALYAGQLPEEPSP", "chain of UniProt P10997 (whole entry, looked up)": "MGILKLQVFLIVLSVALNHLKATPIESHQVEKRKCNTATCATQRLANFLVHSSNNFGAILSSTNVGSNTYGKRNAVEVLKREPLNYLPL", "chain of UniProt P21452 (whole entry, looked up)": "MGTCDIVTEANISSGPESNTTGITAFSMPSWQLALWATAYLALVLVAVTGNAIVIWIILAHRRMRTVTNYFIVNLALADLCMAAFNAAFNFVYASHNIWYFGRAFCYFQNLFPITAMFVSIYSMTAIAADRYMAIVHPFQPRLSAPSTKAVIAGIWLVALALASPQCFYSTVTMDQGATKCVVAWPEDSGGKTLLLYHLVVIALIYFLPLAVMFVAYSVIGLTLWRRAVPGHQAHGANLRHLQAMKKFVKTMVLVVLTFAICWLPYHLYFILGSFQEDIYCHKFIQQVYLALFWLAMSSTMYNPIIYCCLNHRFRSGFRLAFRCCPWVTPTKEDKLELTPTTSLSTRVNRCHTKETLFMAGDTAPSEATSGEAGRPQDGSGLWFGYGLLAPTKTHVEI"}
{"SMILES": "CCN(Cc1ccccc1)C(=O)CCc1nc(CN2CCN(C(=O)Cc3ccc(OC)c(OC)c3)CC2)no1", "target": "SCN4A (Homo sapiens, UniProt P35499)", "test": "ion current, inhibitor, patch clamp", "test system": "HEK293", "conditions": "10 µM", "inhibition": "1.07%"}
{"SMILES": "O=C(NCc1cccc(Cl)c1F)c1cn(Cc2ccc(F)cc2)cc(O)c1=O", "target": "Tripartite terminase subunit 3 C-terminal nuclease domain", "test": "endonuclease activity, inhibitor, ELISA", "conditions": "20 µM", "inhibition": "14%"}
{"SMILES": "COc1ccnc(Nc2c3c(nc4ccccc24)CCCC3)c1", "target": "ache", "test": "enzyme activity, inhibitor, Ellman", "conditions": "50 µM", "inhibition": "85.2%"}
{"SMILES": "O=C(NCc1ccc(F)cc1F)c1cn(Cc2ccc(F)cc2)cc(O)c1=O", "target": "Tripartite terminase subunit 3 C-terminal nuclease domain", "test": "endonuclease activity, inhibitor, ELISA", "conditions": "20 µM", "inhibition": "14%"}
{"SMILES": "O=C(O)/C=C/c1ccc(O)cc1", "target": "alpha-glucosidase", "test": "enzyme activity", "conditions": "250 µg/mL", "inhibition": "57.5% and 63.5%"}
{"SMILES": "S=C(NCc1ccccn1)NCc1ccccn1", "target": "AMY2 (Sus scrofa, UniProt P00690)", "test": "enzyme activity, inhibitor", "conditions": "1000 µg/mL", "inhibition": "59.1%"}
{"SMILES": "C[C@@]12CC[C@@H]3c4cc(Cl)c(O)c(Cl)c4CC[C@H]3[C@@H]1CCC2=O", "target": "AKR1C2", "test": "enzyme activity, inhibitor, absorbance", "conditions": "10 µM, pH 9", "inhibition": "84.1%"}
{"SMILES": "CC(C)[C@H]1NC(=O)[C@H](CO)NC(=O)c2cc3cc(c2)C(=O)NC[C@H](NC(=O)[C@H](Cc2c[nH]cn2)NC(=O)[C@H](Cc2ccc(C(F)(F)P(=O)(O)O)cc2)NC(=O)[C@@H]2CCCN2C1=O)C(=O)N[C@@H](Cc1ccccc1)C(=O)N[C@@H](Cc1ccc2ccccc2c1)C(=O)N[C@@H](CCCNC(=N)N)C(=O)N[C@@H](CCCNC(=N)N)C(=O)N[C@@H](CCCNC(=N)N)C(=O)N[C@@H](CCCNC(=N)N)C(=O)N[C@H](C(=O)N[C@@H](CCCCN)C(N)=O)CNC3=O", "target": "PTPN7 (Homo sapiens, UniProt P35236)", "test": "enzyme activity, inhibitor, absorbance", "conditions": "1 µM", "inhibition": "≤ 10%"}
{"SMILES": "Cc1ccc(/C=C/C(=O)c2ccc(N3CCNCC3)cc2)cc1", "target": "Beta-secretase 1 (BACE1, Homo sapiens, UniProt P56817)", "test": "enzyme activity, inhibitor, fluorescence", "conditions": "10 µM", "inhibition": "44.5%"}
{"SMILES": "CN(C(=N)Nc1cccc2cc3ccccc3cc12)c1cccc(C(F)(F)F)c1", "target": "NMDA receptor PCP site, rat", "test": "binding, inhibitor", "test system": "brain membranes", "conditions": "1.0 µM, added: [3H]TCP", "inhibition": "-7.3%"}
{"SMILES": "CC(=O)NC(Cc1ccc(Br)c(Cl)c1)C(=O)N[C@@H](C)C(=O)N1CCC[C@H]1C(=O)N1CCC[C@H]1C(=O)N[C@@H](CCC(=O)O)C(=O)N[C@@H](Cc1c[nH]cn1)C(=O)N[C@@H](CO)C(=O)N[C@H](C(=O)N[C@@H](C)C(N)=O)[C@@H](C)OP(=O)(O)O (stereo partly shown)", "target": "SRC (Homo sapiens, UniProt P12931)", "conditions": "10 µM", "inhibition": "1.67 ± 0.08%"}
{"SMILES": "CC(=O)N(C)[C@@H](Cc1ccccc1)C(=O)N[C@@H](Cc1ccccc1)C(=O)N[C@@H](CC1CCCCC1)C(=O)N[C@@H](CCCNC(=N)N)C(=O)N[C@@H](CC(C)C)C(=O)N[C@@H](CCCNC(=N)N)C(=O)N[C@@H](CCCNC(=N)N)C(=O)N[C@H](C)C(=O)N[C@@H](CCCNC(=N)N)C(=O)N1CCC[C@H]1C(=O)N[C@@H](CCCCN)C(N)=O", "target": "Oprk1 (Rattus norvegicus, UniProt P34975)", "test": "adenylyl cyclase activity, agonist", "test system": "CHO cells", "conditions": "10 µM", "scale": "baseline: dynorphin A(1-13) amide", "inhibition": "> 40%"}
{"SMILES": "COC1CC(=O)N(C)C=CCCCC(=O)N(C)C(C(C)C)C(=O)N(C)C(CC(C)C)C(=O)OC(C(C)C)CC(C)C1 (stereo not shown)", "target": "TACR2 (Homo sapiens, UniProt P21452)", "test": "β-arrestin recruitment, antagonist", "conditions": "20 µM", "inhibition": "> 70%"}
{"SMILES": "C[C@]12CCC[C@H]1[C@@H]1CCc3c(cc(Br)c(O)c3Br)[C@H]1CC2", "target": "AKR1C1", "test": "enzyme activity, inhibitor, absorbance", "conditions": "100 µM, pH 9", "inhibition": "64.3%"}
{"SMILES": "CC(C)(C)c1ccc(Nc2c3c(nc4ccccc24)CCCC3)cc1", "target": "ache", "test": "enzyme activity, inhibitor, Ellman", "conditions": "50 µM", "inhibition": "10.9%"}
{"SMILES": "CC(C)(COP(=O)(O)OP(=O)(O)OC[C@H]1O[C@@H](n2cnc3c(N)ncnc32)[C@H](O)[C@@H]1OP(=O)(O)O)[C@@H](O)C(=O)NCCC(=O)NCCSCCC(=O)N[C@@H](CO)C(=O)NCC(=O)N[C@@H](CCCNC(=N)N)C(=O)NCC(=O)N[C@@H](CCCCN)C(N)=O", "target": "KAT8 (Homo sapiens, UniProt Q9H7Z6)", "test": "enzyme activity, inhibitor", "conditions": "1 µM", "inhibition": "10 to 40%"}
{"SMILES": "C[C@@](O)(C(F)F)[C@H](NC(=O)c1ccc(C#CC#CC2CC2)cc1)C(=O)NO", "target": "MMP14 (Homo sapiens, UniProt P50281)", "test": "enzyme activity, inhibitor", "conditions": "30 µM", "inhibition": "≤ 30%"}
{"SMILES": "COc1ccc(Nc2c3c(nc4ccccc24)CCCC3)cc1", "target": "ache", "test": "enzyme activity, inhibitor, Ellman", "conditions": "50 µM", "inhibition": "24%"}
{"SMILES": "CCOC(=O)[C@H]1Cc2c(cc([N+](=O)[O-])cc2[N+](=O)[O-])[C@@H](O)[C@@]12C(=O)Nc1ccccc12", "target": "MDM2 (Homo sapiens, UniProt Q00987)", "conditions": "1 µM", "inhibition": "71.6 ± 3.8%"}
{"SMILES": "O=C(NCc1ccc(F)c(F)c1)c1cn(Cc2ccc(F)cc2)cc(O)c1=O", "target": "Tripartite terminase subunit 3 C-terminal nuclease domain", "test": "endonuclease activity, inhibitor, ELISA", "conditions": "20 µM", "inhibition": "7%"}
{"SMILES": "Clc1ccc2nc3c(c(Nc4ccc5ccccc5n4)c2c1)CCCC3", "target": "ache", "test": "enzyme activity, inhibitor, Ellman", "conditions": "100 µM", "inhibition": "> 90%"}
{"SMILES": "O=c1c(NCCc2ccc(O)cc2)c(NC2CCN(Cc3ccccc3)CC2)c1=O", "target": "ache", "test": "enzyme activity, inhibitor, Ellman", "conditions": "25 µM", "inhibition": "63.9%"}
{"SMILES": "FC(F)(F)c1ccc(Nc2c3c(nc4ccccc24)CCCC3)cc1", "target": "ache", "test": "enzyme activity, inhibitor, Ellman", "conditions": "100 µM", "inhibition": "> 90%"}
{"SMILES": "CC[C@H](C)[C@@H]1NC(=O)CNC(=O)[C@H](CCSC)NC(=O)[C@H](C(C)C)NC(=O)[C@H]([C@@H](C)O)NC(=O)[C@@H]2CSSC[C@@H]3NC(=O)[C@H](Cc4c[nH]cn4)NC(=O)[C@@H](NC(=O)[C@@H](NC(=O)[C@H](Cc4ccccc4)NC(=O)[C@H](C)N)[C@@H](C)O)CSSC[C@@H](C(=O)N[C@@H](CC(C)C)C(=O)O)NC(=O)[C@H](CSSC[C@H](NC(=O)[C@H](CO)NC(=O)[C@H](CCCNC(=N)N)NC(=O)[C@H](CCCNC(=N)N)NC3=O)C(=O)N[C@@H](Cc3ccc(O)cc3)C(=O)N[C@@H](CO)C(=O)N[C@@H]([C@@H](C)O)C(=O)N[C@@H](CCC(=O)O)C(=O)N[C@@H](Cc3ccc(O)cc3)C(=O)N[C@@H](CO)C(=O)N[C@@H](Cc3ccc(O)cc3)C(=O)NCC(=O)N[C@@H]([C@@H](C)O)C(=O)N2)NC(=O)[C@H](Cc2ccccc2)NC(=O)[C@H](CCCNC(=N)N)NC(=O)[C@H](Cc2c[nH]cn2)NC(=O)[C@H](CC(N)=O)NC1=O", "target": "Islet amyloid polypeptide, mature peptide 1-37 (IAPP, Homo sapiens, UniProt P10997)", "test": "amyloid fibril formation, inhibitor, ThT fluorescence", "conditions": "concentration not given, 24 to 30 h, 37 °C, compound ratio 1:1, added: hIAPP 20 µM", "inhibition": "32%"}
{"SMILES": "C[C@@]12CC[C@H]3[C@@H](CCC4=CC(=O)C=C[C@@]43F)[C@@H]1CCC2=O", "target": "AKR1C1", "test": "enzyme activity, inhibitor, absorbance", "conditions": "100 µM, pH 9", "inhibition": "50%"}
{"SMILES": "O=C(C[P+]([Au-][Cl])(c1ccccc1)c1ccccc1)[O][Ti+2][O]C(=O)C[P+]([Au-][Cl])(c1ccccc1)c1ccccc1.c1cc[cH-]c1.c1cc[cH-]c1", "target": "MAPKAPK2 (Homo sapiens, UniProt P49137)", "test": "kinase activity", "conditions": "10 µM", "inhibition": "≥ 50%"}
{"SMILES": "Cc1ccc(N2CC3CCC(C2)N3C)cc1C(=O)N[C@H](C)c1cc(-c2cnn(C)c2)nc2ccccc12", "target": "UCHL1 (Homo sapiens, UniProt P09936)", "test": "enzyme activity", "conditions": "concentration not given", "inhibition": "no inhibition"}
{"SMILES": "CC(C)C[C@@H]1NC(=O)[C@@H](NC(=O)CN)CSSC[C@@H]2NC(=O)[C@@H]3CSSC[C@@H](C(=O)N[C@@H](CC(N)=O)C(=O)N[C@@H](Cc4ccccc4)C(=O)N[C@@H](CO)C(=O)N[C@@H](Cc4ccccc4)C(N)=O)NC(=O)[C@H](CC(C)C)NC(=O)[C@H](CCCCN)NC(=O)[C@H](Cc4ccccc4)NC(=O)[C@H](CC(C)C)NC(=O)[C@H](CCCCN)NC(=O)[C@H](CO)NC(=O)[C@H](CSSC[C@H](NC(=O)[C@H](CCCCN)NC(=O)[C@H](Cc4c[nH]c5ccccc45)NC(=O)[C@H](Cc4c[nH]c5ccccc45)NC(=O)[C@H](Cc4ccccc4)NC(=O)[C@H](CCC(=O)O)NC1=O)C(=O)N[C@@H](CC(N)=O)C(=O)N1CCC[C@H]1C(=O)N[C@@H](CC(N)=O)C(=O)N[C@@H](CC(=O)O)C(=O)N[C@@H](CC(=O)O)C(=O)N[C@@H](CCCCN)C(=O)N3)NC(=O)[C@H](CCCCN)NC(=O)[C@H](CC(C)C)NC(=O)[C@H](CCCCN)NC(=O)[C@@H]1CCCN1C(=O)[C@H](CCCNC(=N)N)NC2=O", "target": "Piezo1 (Mus musculus, UniProt E2JF22)", "conditions": "2.5 µM, cell-based", "inhibition": "20 ± 5%"}
{"SMILES": "c1cncc(Nc2c3c(nc4ccccc24)CCCC3)c1", "target": "ache", "test": "enzyme activity, inhibitor, Ellman", "conditions": "100 µM", "inhibition": "52.8%"}
{"SMILES": "COc1cccc(CCNc2c(NC3CCN(Cc4ccccc4)CC3)c(=O)c2=O)c1", "target": "ache", "test": "enzyme activity, inhibitor, Ellman", "conditions": "12.5 µM", "inhibition": "45.7%"}
{"SMILES": "FC(F)(F)c1cccc(Nc2c3c(nc4ccccc24)CCCC3)c1", "target": "ache", "test": "enzyme activity, inhibitor, Ellman", "conditions": "100 µM", "inhibition": "67.5%"}
{"SMILES": "Cc1c(C(=O)Nc2cccc(C(F)(F)F)c2)cc(-c2ccccc2)n1CCCN1CCOCC1", "target": "TRPV4 (Homo sapiens, UniProt Q9HBA0, D546A)", "test": "calcium influx, inhibitor", "test system": "HeLa cells transfected", "conditions": "10 nM, D546A mutant, added: 30% hypotonicity", "inhibition": "no inhibition"}
{"SMILES": "COc1ccnc(Nc2c3c(nc4ccccc24)CCC(C)C3)c1 (stereo not shown)", "target": "ache", "test": "enzyme activity, inhibitor, Ellman", "conditions": "100 µM", "inhibition": "66.6%"}
{"SMILES": "C[C@@]12CC[C@@H]3c4ccc(O)c(Cl)c4CC[C@H]3[C@@H]1CCC2=O", "target": "AKR1C2", "test": "enzyme activity, inhibitor, absorbance", "conditions": "100 µM, pH 9", "inhibition": "80%"}
{"note": "For quick reference, copied from above:"}
{"SMILES": "C[C@]12CCC[C@H]1[C@@H]1CCc3c(cc(Br)c(O)c3Br)[C@H]1CC2", "target": "AKR1C1", "test": "enzyme activity, inhibitor, absorbance", "conditions": "100 µM, pH 9", "inhibition": "64.3%"}
{"SMILES": "FC(F)(F)c1cccc(Nc2c3c(nc4ccccc24)CCCC3)c1", "target": "ache", "test": "enzyme activity, inhibitor, Ellman", "conditions": "100 µM", "inhibition": "67.5%"}
